Published values of several laboratories.
Compare with care: the assays were run in different laboratories.
MET Y1230D: Hepatocyte growth factor receptor (MET, Homo sapiens, UniProt P08581, Y1230D)
MET: Hepatocyte growth factor receptor (MET, Homo sapiens, UniProt P08581)

The remaining activity of COc1cc(-c2cncc3c2CN(C)Cc2cc(N4CCNCC4)ccc2-3)cc(OC)c1OC is reported as 92% (Hepatocyte growth factor receptor (MET, Homo sapiens, UniProt P08581, Y1230C); enzyme activity, inhibitor; 1 µM).
Under “activity vs control”, Cc1cc(NC(=O)c2cccc3cc(-c4cccc5[nH]nc(N)c45)ccc23)ccc1F is recorded as 123% (MET Y1230D; enzyme activity, inhibitor; 0.1 µM).
The remaining signal of Cc1ccc(NC(=O)c2ccc(C)c(C(F)(F)F)c2)cc1C#Cc1nn(C2CCC(O)CC2)c2ncnc(N)c12 (centres unmarked) is reported as 105% (MET Y1230D; cell-free assay; 10 µM).
With CNc1ncc2c(/C=C/C(=O)N3CCC(OC)CC3)nn(Cc3cccc(C(F)(F)F)c3)c2n1 the remaining activity was 91% (MET; enzyme activity, inhibitor, radiometric; 1 µM).
Cc1cnc(NC2CCOCC2)nc1-n1cnc(C(=O)NC(CN)c2cc(F)cc(Cl)c2)c1 (centres unmarked) gave a remaining activity of 93% (Hepatocyte growth factor receptor (MET, Homo sapiens, UniProt P08581, Y1230H); enzyme activity, inhibitor, radiometric; 1 µM).
CCCCC(=O)Nc1ccc(-c2ccc3ncn(CCC)c(=O)c3c2)cn1 gave a remaining binding of 88% (Hepatocyte growth factor receptor (MET, Homo sapiens, UniProt P08581, Y1235D); binding, competition with immobilised ligand; 0.5 µM).
With Cc1cc([C@@H](C)Nc2ccccc2C(=O)O)c2nc(N3CCC(F)(F)CC3)c(C#N)c(=O)n2c1 the remaining binding was 100% (MET; binding, competition with immobilised ligand; 10 µM).
For C1=C/COCc2cc(ccc2OCCN2CCCC2)Nc2nccc(n2)-c2cccc(c2)COC/1, the remaining binding was 83% (MET; binding; 0.1 µM).

Excerpt of the above:
Cc1cnc(NC2CCOCC2)nc1-n1cnc(C(=O)NC(CN)c2cc(F)cc(Cl)c2)c1 (centres unmarked) gave a remaining activity of 93% (Hepatocyte growth factor receptor (MET, Homo sapiens, UniProt P08581, Y1230H); enzyme activity, inhibitor, radiometric; 1 µM).
